Results gathered from unrelated publications.
Protocols differ between the studies behind these lines. ± marks the error that the study gave.
CYP2C19: Cytochrome P450 2C19 (CYP2C19, Homo sapiens, UniProt P33261)

SMILES	tested on	test	test system	setting	how to read	quantity	value
N#C[C@@]1(c2ccc3c(N)ncnn23)O[C@H](COC(=O)C2CCC(F)CC2)[C@@H](O)[C@H]1O (stereo partly shown)	human respiratory syncytial virus	viral replication, viral protein ELISA	HEp-2, A2	5 days	reference: CC50 over EC50	selectivity index	111
Cn1cc(-c2ccc(-c3cncc(Cl)c3N3CCC4(CCNC4=O)CC3)cc2)cn1	COLO 205	gene expression, microarray, refers to: SULF1 mRNA		concentration not given, 6 h	reference: untreated cells	log2 fold change	1.21
CC[C@H](CO)N(CCN(N=O)[C@H](CC)CO)N=O	Salmonella typhimurium	mutagenicity, Ames plate incorporation	TA1537	500 µg/plate, without S9, methanol		revertant colonies per plate	12 ± 2
COc1ccc2[nH]c([S+]([O-])Cc3ncc(C)c(OC)c3C)nc2c1 (stereo not shown)	CYP2C19		human, plasma	oral, 20 mg, added: single dose encorafenib and binimetinib	reference: Day -7 probe alone	Cmax increase	~32%
Cc1cc(N)c2c(OCC(C)(C)C(=O)NC(C)C)cccc2n1	Salmonella typhimurium	reverse mutation, plate incorporation	TA98	500 µg/plate, with rat liver S9		mean revertant colonies	27 colonies/plate
C[C@H](N)C(=O)O	Bacillus subtilis		168, S7 medium	1 mM, equimolar amino acid mixture		uptake half-time	11.7 h
CCCCCCCCC(=O)OC[C@H]1O[C@@](C#N)(c2ccc3c(N)ncnn23)[C@H](O)[C@@H]1O	human respiratory syncytial virus	viral replication, viral protein ELISA	HEp-2, A2	5 days	reference: CC50 over EC50	selectivity index	92.9
CC(C)C[C@H](NC(=O)C[C@H](O)[C@H](CC(C)C)NC(=O)[C@H](Cc1c[nH]cn1)NC(=O)CNC(=O)[C@@H](NC(=O)[C@H](C)NC(=O)[C@H](Cc1c[nH]c2ccccc12)NC(=O)[C@H](CCC(N)=O)NC(=O)[C@@H](Cc1ccccc1)NC(=O)COCCOCCNC(=O)CCC(C(=O)O)N1CCN(CC(=O)O)CCN(CC(=O)O)CCN(CC(=O)O)CC1)C(C)C)C(N)=O (stereo partly shown) [lutetium-177 labelled]			BALB/c nu/nu mice, liver	intravenous, 50 pmol, 1 h, added: PA 300 µg		tissue uptake	0.46 ± 0.08 %ID/g
N[C@@H](CC(=O)O)C(=O)O	Bacillus subtilis		NCIB3610, MOPS medium	1 mM, 1 mM equimolar amino acid mixture		uptake half-time	17.4 h
N#C[C@@]1(c2ccc3c(N)ncnn23)O[C@H](COC(=O)c2ccccc2)[C@@H](O)[C@H]1O	human respiratory syncytial virus	viral replication, viral protein ELISA	HEp-2, A2	5 days	reference: CC50 over EC50	selectivity index	165
N=C(N)NCCC[C@H](N)C(=O)O	Bacillus subtilis		168, S7 medium	1 mM, equimolar amino acid mixture		uptake half-time	4.8 h
Cc1cc(Nc2ccc(S(F)(F)(F)(F)F)cc2)n2nc(C(C)(F)F)nc2n1	Plasmodium falciparum	12-lead Holter ECG	human malaria patients	oral, 250 mg, QTc above 450 ms		patients with QTcF above threshold	11.1%
COc1ccc2nc([S+]([O-])Cc3ncc(CO)c(OC)c3C)[nH]c2c1 (stereo not shown)	CYP2C19	substrate	human, plasma	oral, 20 mg, day 1, cocktail with binimetinib and encorafenib		AUC(0-t)	302 ng·h/mL
